Measured values of several laboratories.
A part holds a random share of what one study measured.

Series 1
Target: Interferon regulatory factor 5, full length, phosphomimetic (IRF5, Homo sapiens, UniProt Q13568-2, residues 1-514, S451D/S453D/S456D/S462D)
Technique: protein-binding microarray
Form: double-stranded DNA, one strand shown
Sample: in vitro
Concentration: 940 nM top
Setting: 60-bp whole probe
Added: salmon DNA 0.4 mg/ml
Baseline: random background probes
Reading: higher = stronger binding
All sequences stand within: GCCTAGCAC … GTCTTGATTCGCTTGACGCTGCTG
Strand	fitted relative affinity
TTAGATTTCGGTTTTCGATTAGTGCTA	3.77 z-score
CAGAATCCCCTTCTACTCTCGTGCTAG	0.682 z-score
TTAGGTCACCTTATCCTTTAGTGCTAG	0.156 z-score
TTAGAACTGGGGACGGGATTAGTGCTA	0.415 z-score
GACGATCTCAGACTGGACACGTGCTAG	-0.287 z-score

Series 2
Target: Sal-like protein 4, full length isoform A (SALL4, Homo sapiens, UniProt Q9UJQ4, residues 1-1053)
Chain of UniProt Q9UJQ4 (whole entry, looked up): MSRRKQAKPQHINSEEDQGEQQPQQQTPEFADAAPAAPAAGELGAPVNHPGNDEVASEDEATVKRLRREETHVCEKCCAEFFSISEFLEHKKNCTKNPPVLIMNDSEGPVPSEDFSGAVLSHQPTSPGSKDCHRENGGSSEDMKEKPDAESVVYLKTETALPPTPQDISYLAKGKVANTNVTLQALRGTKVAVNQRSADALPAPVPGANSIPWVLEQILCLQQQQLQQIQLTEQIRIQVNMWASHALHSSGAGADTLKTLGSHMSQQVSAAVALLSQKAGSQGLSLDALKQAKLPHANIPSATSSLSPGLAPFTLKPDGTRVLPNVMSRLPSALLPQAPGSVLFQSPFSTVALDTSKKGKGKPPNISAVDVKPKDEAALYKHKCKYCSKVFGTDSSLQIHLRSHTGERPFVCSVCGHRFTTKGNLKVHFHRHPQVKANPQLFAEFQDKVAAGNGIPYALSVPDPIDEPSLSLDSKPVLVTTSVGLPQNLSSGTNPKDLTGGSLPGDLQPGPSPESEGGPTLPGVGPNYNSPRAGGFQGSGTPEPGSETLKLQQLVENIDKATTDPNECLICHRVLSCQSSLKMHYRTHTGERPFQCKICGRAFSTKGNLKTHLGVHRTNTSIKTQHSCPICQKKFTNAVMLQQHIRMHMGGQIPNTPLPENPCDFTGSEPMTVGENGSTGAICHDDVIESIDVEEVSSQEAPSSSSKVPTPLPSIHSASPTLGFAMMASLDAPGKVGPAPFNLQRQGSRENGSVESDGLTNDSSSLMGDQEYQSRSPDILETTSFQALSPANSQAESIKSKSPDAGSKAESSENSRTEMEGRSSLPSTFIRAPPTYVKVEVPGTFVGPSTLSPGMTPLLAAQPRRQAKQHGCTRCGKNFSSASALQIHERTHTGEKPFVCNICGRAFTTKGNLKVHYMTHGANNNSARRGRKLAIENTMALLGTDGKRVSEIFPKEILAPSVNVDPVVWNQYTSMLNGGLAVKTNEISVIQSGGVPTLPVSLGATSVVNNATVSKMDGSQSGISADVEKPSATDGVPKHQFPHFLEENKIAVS
Technique: universal PBM
Form: double-stranded DNA, one strand shown
Sample: in vitro
Concentration: 600 nM
Setting: 8-mer, flanks averaged, mean of replicates
Reading: higher = stronger binding
Strand	E-score
CTGGAATC	-0.0716
CGGAGTCA	-0.217
CCTGAGAG	-0.218
GACGCAAC	-0.148
TTAGTCAA	0.147
ATTCACTA	0.128
CTCCGTGA	-0.18
GATCCTGC	-0.29
ATAGGCCA	0.0138

Series 3
Molecule: PhoQ, residues 284 288 289 292 302 303 MLMVEA
Technique: Sort-seq
Item: YFP reporter
Sample: E. coli
Setting: PhoQ-PhoP variant library
Added: 10 µM Mg2+
Baseline: high Mg2+ state
Reading: higher = stronger signaling
target	fold induction
PhoP, residues 12 14 15 18 19 TQCLL (Escherichia coli, UniProt P23836)	12.9
PhoP, residues 12 14 15 18 19 ICWRQ (Escherichia coli, UniProt P23836)	11.5
PhoP, residues 12 14 15 18 19 VHTVL (Escherichia coli, UniProt P23836)	9.99

Series 4
Target: RING finger protein unkempt homolog, zinc fingers 1-6, SBP tag (UNK, Homo sapiens, UniProt Q9C0B0, residues 30-357)
Chain of UniProt Q9C0B0 (30-357, looked up): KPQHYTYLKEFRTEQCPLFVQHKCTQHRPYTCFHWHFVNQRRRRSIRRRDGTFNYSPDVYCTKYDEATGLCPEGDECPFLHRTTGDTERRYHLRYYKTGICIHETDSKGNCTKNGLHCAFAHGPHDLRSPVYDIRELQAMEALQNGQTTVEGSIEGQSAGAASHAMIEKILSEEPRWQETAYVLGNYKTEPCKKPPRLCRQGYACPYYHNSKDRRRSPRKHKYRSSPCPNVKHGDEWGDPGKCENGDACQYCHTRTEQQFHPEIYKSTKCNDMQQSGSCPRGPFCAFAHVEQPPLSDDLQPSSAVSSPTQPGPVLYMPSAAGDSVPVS
Technique: RNA Bind-n-Seq
Form: RNA
Sample: in vitro
Concentration: 100 nM
Setting: RNA with constant flanks, vertebrate orthologous sites, ends assumed
Baseline: input RNA pool
Reading: higher = stronger binding
All sequences stand within: GGGAGUUCUACAGUCCGACGAUC … CAACAGAGGAUUGAGCAUCA
Strand	bound/input enrichment
CCUACAAUAAUGAAAACCUAUAGAAAUUUUUUAAUUUUUCAUUUUCCCCUUAGGCAUACAUAGUCUUUCCGCCCCCAGGCAGAUCAUUCUGAGUGUGCGAGUGUGUGUGCACAUGUUACA	1.25 ratio
CCUCUAAACCCCAUUUCUUCUGUUUCAUAGUGUAGAAGUAUUCUUUUUCAGUUAUAUUAUUAGUGGACUUGUUAUAAUUUUAGGGAAAAUUUCAGUACAGAUGCUGUGAGCUUACAUGGA	1.28 ratio
UGUGAGGGUCUACUGACCACUCACUGUUAAUGUCUGAUAUCUGUAAACAUUUUCUGUUCUUAGUCUUUUACUUGUAUAAUUGAUGUUCUUUAAAAUUGUCAAUGUACAACAGGGCUUAUG	0.384 ratio
CUACUGUAAACAACUCAGGGCAGUAUUCUCGAUAUCCUUACAGUAACCUAAAUCAGGGAUUAGUUAACAGUACAGGGAUGAAUCAAAAUUUAGGCCUUACAAACAGUACUCCAAUGAAUC	1.07 ratio
AUAAAAAACCCCGAUUUUAGAUACUUAGGCUUUCAUUCCAGUUGGUUUUGUCUUCUUGUUUAGAUACCACUUAAAUUCUUGGCAUUUUAGUAAGAAAGCUACCUUUUUAUGGAUGUUAGC	0.532 ratio
CCGAAAGGCCAAAUUCCCUCCUCCCUUCUACUGCUUCUACCAACUGGAAGCACAGAAAACUAGAAUUUCAUUUAUUUUCUUUUUAAAAAAUUAUAUGUUGAUUUCUUGUAACAUCCAAUA	0.755 ratio
AUUCAAACCUGUGGUACCAUGGCCUCAUGUUGAAGGAGUAGAAGUGGAUUUAGAGUCUAUUAGAAGAAAAAACAAGGCCAAAAAUGAACAUGAACACCAUGCUGGCGGAGAUUCCCAGAA	0.413 ratio
GGAAAGUUACAGACCAGACACUGAAAGUAGGAGCACAGGAUCCUGGUUGUCGUCCUCUUUGAGGAACAGAUGUACACCUCUCUUUUCCAGAAGAAGAAGAGAAGGAAGAGAUGAAUCUGC	0.381 ratio
AGCAGCUCAAGGAUUCAGAACUGGUUUUGCAAAUGCCCCAAGCAGAUAUGGAACAAACGCUCGUGGUCAGCCCCGACCGUAAUAAACACCAUUAUUUAUUAUACUUAAGGGUAUUGACUU	0.289 ratio
